Assay results collected from several papers.
Parts stem from different laboratories: compare values within a part only. Changes are numbered by the printed parent chain.

Set 1
Target: Fragile X messenger ribonucleoprotein 1, C-terminal low-complexity region (Fmr1, Mus musculus, UniProt P35922)
Technique: RNA Bind-n-Seq
Molecule type: RNA
Sample: in vitro
Tested at: 200 nM
Setting: whole 134-nt RNA, ends assumed
With: 150 mM KCl
Baseline: input library
Reading: higher = stronger binding
Endpoint: log2 enrichment
Constant ends, left off below: GGGAGUUCUACAGUCCGACGAUC … UGGAAUUCUCGGGUGUCAAGG
Oligonucleotide = UUUAAUGUCUGCGGCACAAUGCCUGUCUGUGGGACCAUCCUGGGAAAACCUGCUUCUGGCUGUGAGGCAGAAACCCAAACUGAAGAGCUC; result = 0.235
Oligonucleotide = GCAGGAAGUAAAAACAAAUGGAAAUGCUUGGGAUAGUGGCAGGGGUGGGGGUUGCUAAGGAAAGGGUGGGAUGGGAGUGGGUAAAGAGUU; result = 0.0357
Oligonucleotide = CCUGUGCUACACAUCGUAUGUACCGAAUCGGCCCCCCCGGCCCCCCCGGGGCCCCCCCGGGAAAGUAUUAUGUUACGCCGUUCGGAUCUG; result = -0.452
Oligonucleotide = UAACUUUAGAGGAGGAUCUGAUGGAUAUGGCAGUGGACGUGGAUUUGGGGAUGGCUAUACUGGGUAUGGAGGAGGACCUGGAGGUGGCAA; result = 0.34
Oligonucleotide = AUUAUAGACUUGAUCAAAACACAGGAAAAGGCAACUCCCAGGAACUUUCCGCCACGAUUCCAGGAUGGAUAUUACAGCUGACAGCUUUUC; result = -0.66
Oligonucleotide = UCAAGUCCUGUGCUACACAUCGUAUGUACCGAAUCGGGUGGGAGGGUUUUUGGGAAAGUAUUAUGUUACGCCGUUCGGAUCUGCACUUCC; result = 1.07
Oligonucleotide = UCCUGUGCUACACAUCGUAUGUACCGAAUCGGGGCCCCCGGCCCCCGGGGCCCCCGGGGAAAGUAUUAUGUUACGCCGUUCGGAUCUGCA; result = -0.989
Oligonucleotide = CUGUGCUACACAUCGUAUGUACCGAAUCGGGGAAAAAAAGGGGUUUUUUUGGGGAAAGGGGAAAGUAUUAUGUUACGCCGUUCGGAUCUG; result = -0.0226
Oligonucleotide = UGGGAGGUGGAUUUUGUUUAUUUUUUUAACUCAUUUCCAGGGGUGGGAAUUUUUUUUUAAUAUGUGUCAUGAAUAAAGUUGUUUUUGAAA; result = 0.233
Oligonucleotide = AAGUCCUGUGCUACACAUCGUAUGUACCGAAUCGGGGAAAAGGAAAAGGGAAAAGGGAAAGUAUUAUGUUACGCCGUUCGGAUCUGCACU; result = -0.343
Oligonucleotide = GUCCUGUGCUACACAUCGUAUGUACCGAAUCAAAUUUUUAAAUUUAAAUUUUUUUAAAAAAGUAUUAUGUUACGCCGUUCGGAUCUGCAC; result = -1.15
Oligonucleotide = GUCCUGUGCUACACAUCGUAUGUACCGAAUCGGGGCCCCGGGCCCCGGGGCCCCGGGGAAAGUAUUAUGUUACGCCGUUCGGAUCUGCAC; result = -1.06
Oligonucleotide = UCAAGUCCUGUGCUACACAUCGUAUGUACCGAAUCGGAGGUUUUUUUGGUUUGGAAAGUAUUAUGUUACGCCGUUCGGAUCUGCACUUCC; result = -0.913
Oligonucleotide = AGUCCUGUGCUACACAUCGUAUGUACCGAAUCGGGGCCCCGGCCCCGGGGCCCCGGGAAAGUAUUAUGUUACGCCGUUCGGAUCUGCACU; result = -0.249

Set 2
Target: CCNA1, cyclin fold, Cln2 fusion (human)
Technique: yeast growth competition, sequencing
Sample: yeast
Setting: weak parent motif
Baseline: not given
Reading: higher = stronger binding
Endpoint: normalised enrichment score
Starting sequence: PKN2 docking peptide (human); VSAVRKLDFSDTM
Substitution = D11N; result = 0.623
Substitution = S10I; result = 0.23
Substitution = T12M; result = 1.06
Substitution = T12D; result = 0.868
Substitution = L7Q; result = 0.0431
Substitution = K6S; result = 0.422
Substitution = V4R; result = 1.75
Substitution = L7P; result = 0.0644
Substitution = F9C; result = 0.188
Substitution = S2M; result = 0.56
Substitution = S2L; result = 0.941
Substitution = D8L; result = -0.0895
Substitution = D11T; result = 0.461
Substitution = S10E; result = 0.996
Substitution = A3Q; result = 0.0302
Substitution = A3F; result = 0.291
Substitution = L7R; result = 0.0582
Substitution = F9H; result = 0.252
Substitution = K6D; result = 0.0634
Substitution = T12Y; result = 0.87
Substitution = K6C; result = 0.763
Substitution = S10F; result = 0.294
Substitution = D8A; result = 0.63
Substitution = V4Q; result = 0.849
Substitution = S2R; result = 1.15

Set 3
Target: RNA binding protein fox-1 homolog 2, RRM domain, GST-SBP tag (RBFOX2, Homo sapiens, UniProt O43251-10, residues 100-194)
Technique: RNA Bind-n-Seq
Molecule type: RNA
Sample: in vitro
Tested at: 365 nM
Setting: natural RNA segment, single round, ends assumed
Baseline: no-protein control
Reading: higher = stronger binding
Endpoint: RBNS enrichment (R)
Constant ends, left off below: GGGAGUUCUACAGUCCGACGAUC … UGGAAUUCUCGGGUGCCAA
Residues (chain): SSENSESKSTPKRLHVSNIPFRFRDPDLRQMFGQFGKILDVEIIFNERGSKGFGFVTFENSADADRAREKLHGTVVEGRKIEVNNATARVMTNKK
Oligonucleotide = UUGGAACAGAGUUUUCUGAGAAAACAUUUUCAAGUUAAAGGAAAAUGCUAAGUCUGGCAUGGUAGUCAACACCUAUAAUCUCUGCACUCAGAGGCUGAGGAAGAAAGAUC; result = 0.273
Oligonucleotide = AUGUCUGCUUACUCACAAAAACAGAUAGUGGCUUAGGAAUUGUGGUUAUAUCCAGUUAUACAGGCGAGGAGGGGCUGUGGUAAAGACAGAUUAAAAGGAACAAAUGAAGU; result = 1.03
Oligonucleotide = CGUUUGUGUAAUGUCCUGAAACCUUGGAGAGGUUCCAGAAUACUUCUGUAUAUAGGGCACAGGUGAAGACAUUGUCCAAAGCUUAUUUAUUUAUCUAUUUAUUUACCCUG; result = 0.405
Oligonucleotide = AUUGUUUUAUGGCUGAAAUAGAAAGCUAAUGAAGAGGCCUACCUGGAUCCAGAUUUUAUGUUAACAUGGCAGCAAAACUAGGAAAAUGGGAAGAAAUUACUUGCGGGGUG; result = 0.575
Oligonucleotide = UAAGUUUUUGAUUUAUCUUACUUGGUAAAUGAAAUGCAUUAGCUGUCUGCCUUUUCCUUCCCAUCCUCUGCCCAGCCUGUCCACUGUCCCUGCUCCUCCACCCCCUCCCA; result = 0.892
Oligonucleotide = AGUAAGGGAAGAGGUCCUCUGGCCCCCUGAAGAUGAGAAUCACCCCUCUCAGUGCACCUGGGGAUCCCCCUAAACUGUGAAUUCUGCCCUGGACAGGGCUUUGCCCUUGG; result = 0.272
Oligonucleotide = AACCCCAGCGGGCCCUCUGGAGUCCGCCCUGCCCCUCCCCCGGCCCCCCAUCCCUCACUUCUGGGCUGUCAUGCUCCUGGUGUGCCCCUUGCACUGGGGCUGGCUGGGUU; result = 0.474
Oligonucleotide = GGGUUGUGUUGGAUGGGAUGAUCUGUUGCAGAGGGAGAGGCAGGGAACCCUGCUCCUUCGGGCCCCAGGUUGAUCCUGUGACUGAGGCUCCCCCUCAUGUAGCCUCCCCA; result = 0.501
Oligonucleotide = GGCCACUUCCAGGGGUGUGCCCGGGGUUAGGCAAGUGGCAGACGAGGGUUCUUAUUUGAGGCUUUGCUAGGCUCAUCUGCUGUGUCCUGGGUAGUCCACUCAUAUUCUUG; result = 0.695
Oligonucleotide = UUUUAUGCAUAAGUGCUCAAAUGCAUUUCUCUUUCUUUCGAAACUAGUUAAUCGUUAAGUUGACAAUGAGAGAAUUCUCAAGUUCAUACCUGGCAGCAGGCUCCCACUGA; result = 0.511
Oligonucleotide = UUCCUGGGACUGGCAGCUGGGCCUCCUGGGUGCCAGUCCAUCUCAAGUGCCAUAUUCUGUGAUCACGGAUGUUGGCUCCCCCUCGCCCUAUGCAAGCAAACACACUCUCA; result = 0.864
Oligonucleotide = UGUCUGAGCUUUCCUGACCCCUGUAUUGUAUCCUUGCUCCCAGGGCUCCCUUCAUGGCUUGUGAACUGUUAACUUGGUAUCUCAGGUUAAACUGUCAGCUGGUCUAGCCU; result = 0.49

Set 4
Target: Histone acetyltransferase KAT6A, winged helix 1, GST fusion (KAT6A, Homo sapiens, UniProt Q92794, residues 1-85)
Technique: protein binding microarray
Molecule type: double-stranded DNA, one strand shown
Sample: in vitro
Tested at: not given
Setting: 8-mer, flanks averaged, mean of 2 arrays, mostly near background
Baseline: not given
Reading: higher = stronger binding
Endpoint: E-score
Target sequence (chain): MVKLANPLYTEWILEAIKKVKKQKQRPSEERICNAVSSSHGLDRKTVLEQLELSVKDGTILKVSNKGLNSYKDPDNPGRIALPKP
Oligonucleotide = ACAACGGT; result = 0.0244
Oligonucleotide = CCACTCCC; result = 0.00949
Oligonucleotide = CAGGCGAA; result = -0.251
Oligonucleotide = CGGAGTGA; result = 0.0805
Oligonucleotide = CCGGCAAA; result = 0.234
Oligonucleotide = AAAAGGCC; result = 0.0671
Oligonucleotide = AGTTCTAG; result = -0.117
Oligonucleotide = AAGTATTC; result = -0.204
Oligonucleotide = AGATCCTA; result = -0.227
Oligonucleotide = CGACACCA; result = -0.0413
Oligonucleotide = ATTCATCG; result = -0.0966
Oligonucleotide = ATTCTACA; result = -0.15
Oligonucleotide = CACGAAGG; result = 0.0563
Oligonucleotide = AAACAGTA; result = -0.055
Oligonucleotide = GTCTGTGA; result = -0.124
Oligonucleotide = CATCTCAC; result = -0.0824
Oligonucleotide = TCTCAGAA; result = -0.186
Oligonucleotide = AGCGTACC; result = 0.275
Oligonucleotide = ACTTTGCC; result = 0.0439
Oligonucleotide = CGCTCCGC; result = 0.351
Oligonucleotide = AACGAAAG; result = -0.0282
Oligonucleotide = CTAGTCGC; result = 0.049
Oligonucleotide = AGTCGCCA; result = -0.167
Oligonucleotide = AGTCAGGG; result = -0.112
Oligonucleotide = CGTCGCCC; result = 0.295

Set 5
Target: Centromere-binding protein 1, full length, N-terminal tag (CBF1, Saccharomyces cerevisiae, UniProt P17106, residues 1-351)
Chain of UniProt P17106 (whole entry, looked up): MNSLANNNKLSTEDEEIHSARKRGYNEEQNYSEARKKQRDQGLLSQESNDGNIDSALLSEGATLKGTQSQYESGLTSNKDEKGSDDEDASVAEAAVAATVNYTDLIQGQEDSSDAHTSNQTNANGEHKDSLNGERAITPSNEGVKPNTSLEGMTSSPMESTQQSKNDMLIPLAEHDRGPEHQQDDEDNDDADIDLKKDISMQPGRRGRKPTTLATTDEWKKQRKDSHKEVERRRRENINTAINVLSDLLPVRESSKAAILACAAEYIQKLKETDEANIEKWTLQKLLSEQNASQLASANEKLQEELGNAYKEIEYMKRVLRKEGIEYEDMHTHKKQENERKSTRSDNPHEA
Technique: protein-binding microarray
Molecule type: double-stranded DNA, one strand shown
Sample: in vitro
Tested at: 0.8 µM
Setting: whole 60-bp probe, no competitor
Reading: higher = stronger binding
Endpoint: fluorescence intensity
Constant ends, left off below: … GTCTTGATTCGCTTGACGCTGCTG
Oligonucleotide = CCTAACTACTATAGTGCTGATGTATAGCTTCGTACA; result = 508 a.u.
Oligonucleotide = GAATTTTTATAAATCAAAGTCACAAAAAGTCCTTAG; result = 588 a.u.
Oligonucleotide = CTATTTCAAATATTTCACGCGCAAAGAAAGAATTTC; result = 665 a.u.
Oligonucleotide = CTAGCTCTCTAAGTTCGTGTGCAAGCTGATTATTTC; result = 504 a.u.
Oligonucleotide = GAAAGGGCCCTTAAAGGCGTGACTACAAAAAGGTAG; result = 1720 a.u.
Oligonucleotide = CTATATGATAATATACTGGTGGTGAATGACAGCTTC; result = 525 a.u.
Oligonucleotide = GAAAAAAAGCTGGGTCACGAAGAAATGATTCTATAG; result = 564 a.u.
Oligonucleotide = TGTACGAAGCTATTTCACCAGATTATAGTAGTTAGG; result = 524 a.u.
Oligonucleotide = GAATTTTATAAACCTCCCACCACCTGATAATCTTAG; result = 876 a.u.
Oligonucleotide = GAATCGGTATATTAACAGCACGTGTATTTTCTTTAG; result = 7140 a.u.
Oligonucleotide = CTAGTGCAGCCGGCCCTCGTGCGCCTGCGCCGTTTC; result = 570 a.u.
Oligonucleotide = GAAGGCTGTTTTCGTCACGGGGAATCCTTACACTAG; result = 1170 a.u.
Oligonucleotide = CTAACTACGCCAACGTGATTGGCAATTGTGCTCTTC; result = 1460 a.u.
Oligonucleotide = CTATGTACTTCATCAAACACCACGCTGTCAGGCTTC; result = 569 a.u.
Oligonucleotide = CTAGACTACCAGTAACATCAGAATAACCATAGATTC; result = 530 a.u.
Oligonucleotide = GAAGGCATAATTACTTGCCTGATGACGAATAACTAG; result = 602 a.u.
Oligonucleotide = GAAACCATCACTTATCACGTTGTGGTGACAACGTAG; result = 979 a.u.
Oligonucleotide = GAAACAGGCTACAACCACCACCTTCAATGAAGATAG; result = 482 a.u.
Oligonucleotide = CTATCTTTAATCTTTCATATGATGAAATAATAGTTC; result = 591 a.u.
Oligonucleotide = GAACAGCCGTGCGACCATGTGGTATTTCACCCGTAG; result = 643 a.u.
Oligonucleotide = TGTACGAAGCTATGCCACGATCCTATAGTAGTTAGG; result = 523 a.u.
Oligonucleotide = GAAAACCCTCAGAAGCGGGTGACCCATCTCTCGTAG; result = 488 a.u.
Oligonucleotide = GAACATGGATATTGTGCTGATGTAAAAGTATTCTAG; result = 573 a.u.
Oligonucleotide = GAAGGTTTATAGGTTCACATGATATGAGTATAATAG; result = 1210 a.u.
Oligonucleotide = CTACGACTCCCAACACACGTTTAATGTTGTACGTTC; result = 544 a.u.

For quick reference, copied from above (set 2):
Substitution = S10I; result = 0.23
Substitution = F9C; result = 0.188
Substitution = D11T; result = 0.461
Substitution = T12M; result = 1.06
Substitution = K6S; result = 0.422
